Results from different studies.
Numbered parts are unrelated; each lists some results of a single study. Numbers after ± are the reported error.
Sequence of UniProt P48432 (whole entry, looked up): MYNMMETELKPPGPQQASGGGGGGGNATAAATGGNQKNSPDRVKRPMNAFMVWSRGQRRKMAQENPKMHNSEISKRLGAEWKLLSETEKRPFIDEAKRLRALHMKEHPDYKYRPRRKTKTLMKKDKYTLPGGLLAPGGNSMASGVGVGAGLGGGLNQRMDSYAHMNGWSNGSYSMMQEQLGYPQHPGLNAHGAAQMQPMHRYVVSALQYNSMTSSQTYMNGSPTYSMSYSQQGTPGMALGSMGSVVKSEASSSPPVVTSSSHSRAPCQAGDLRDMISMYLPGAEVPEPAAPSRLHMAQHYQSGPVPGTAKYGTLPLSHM
Sequence of UniProt P49336 (whole entry, looked up): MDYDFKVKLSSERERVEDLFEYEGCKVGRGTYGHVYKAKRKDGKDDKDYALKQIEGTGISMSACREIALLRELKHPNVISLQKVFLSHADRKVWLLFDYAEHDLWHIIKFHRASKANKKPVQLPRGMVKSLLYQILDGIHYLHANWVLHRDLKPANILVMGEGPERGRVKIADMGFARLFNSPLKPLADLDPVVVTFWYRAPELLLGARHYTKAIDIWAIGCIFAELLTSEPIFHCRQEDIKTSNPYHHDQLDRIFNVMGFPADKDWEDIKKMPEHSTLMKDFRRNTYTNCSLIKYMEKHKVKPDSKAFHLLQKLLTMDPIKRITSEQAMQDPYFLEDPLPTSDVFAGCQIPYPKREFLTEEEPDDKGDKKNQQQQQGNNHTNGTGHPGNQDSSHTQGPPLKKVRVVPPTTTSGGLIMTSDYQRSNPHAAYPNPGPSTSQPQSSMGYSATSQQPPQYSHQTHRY
Sequence of UniProt P16591 (whole entry, looked up): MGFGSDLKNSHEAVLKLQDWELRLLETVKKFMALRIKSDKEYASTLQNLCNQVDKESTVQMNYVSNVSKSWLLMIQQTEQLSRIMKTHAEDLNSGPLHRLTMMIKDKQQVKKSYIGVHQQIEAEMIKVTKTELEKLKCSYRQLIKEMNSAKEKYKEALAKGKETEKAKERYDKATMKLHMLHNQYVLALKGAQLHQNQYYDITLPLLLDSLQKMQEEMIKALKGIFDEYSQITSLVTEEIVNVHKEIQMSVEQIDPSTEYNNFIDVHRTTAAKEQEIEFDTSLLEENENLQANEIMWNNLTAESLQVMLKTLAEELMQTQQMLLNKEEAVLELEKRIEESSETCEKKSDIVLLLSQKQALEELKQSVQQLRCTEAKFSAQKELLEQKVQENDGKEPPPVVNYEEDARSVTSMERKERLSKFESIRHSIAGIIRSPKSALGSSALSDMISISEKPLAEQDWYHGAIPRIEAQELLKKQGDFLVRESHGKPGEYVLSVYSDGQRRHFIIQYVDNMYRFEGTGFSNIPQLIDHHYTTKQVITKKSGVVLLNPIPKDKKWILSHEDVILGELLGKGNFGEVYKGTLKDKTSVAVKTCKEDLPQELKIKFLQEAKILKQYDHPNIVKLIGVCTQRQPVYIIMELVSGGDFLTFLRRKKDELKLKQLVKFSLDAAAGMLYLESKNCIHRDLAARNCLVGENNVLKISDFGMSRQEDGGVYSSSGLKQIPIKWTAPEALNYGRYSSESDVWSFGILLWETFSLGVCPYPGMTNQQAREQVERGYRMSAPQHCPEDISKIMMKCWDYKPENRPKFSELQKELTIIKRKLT

Set 1 — technique: protein-binding microarray; form: double-stranded DNA, one strand shown; sample: in vitro; concentration: not given; reading: higher = stronger binding
Target: Protein C-ets-1 (ETS1, Homo sapiens, UniProt P14921, residues 1-441, full length assumed)
Sequence of UniProt P14921 (whole entry, looked up): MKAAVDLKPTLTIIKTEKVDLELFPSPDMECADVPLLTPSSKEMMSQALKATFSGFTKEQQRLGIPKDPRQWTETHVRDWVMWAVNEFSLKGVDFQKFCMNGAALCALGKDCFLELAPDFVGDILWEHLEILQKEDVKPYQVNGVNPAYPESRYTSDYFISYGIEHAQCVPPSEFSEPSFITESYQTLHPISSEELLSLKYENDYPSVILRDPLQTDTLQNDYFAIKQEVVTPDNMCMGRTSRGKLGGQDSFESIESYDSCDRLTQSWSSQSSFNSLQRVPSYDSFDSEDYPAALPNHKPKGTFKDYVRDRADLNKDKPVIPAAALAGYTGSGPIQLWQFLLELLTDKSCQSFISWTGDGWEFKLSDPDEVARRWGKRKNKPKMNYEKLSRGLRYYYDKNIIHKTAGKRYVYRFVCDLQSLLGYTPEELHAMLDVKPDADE
Notes: k-mer, scored over probes, only values ≥0.25
`CACGCCGG` has an E-score of 0.254.
With `CTTCCCCA` the E-score was 0.304.
The E-score of `ACGACCGG` is reported as 0.325.
The E-score of `TACAGGAA` is reported as 0.454.
For `GAGGAAGA`, the E-score was 0.349.
`AACTTCCT` has an E-score of 0.478.
`AGGAAGAG` gave an E-score of 0.38.
`GGACGCAC` gave an E-score of 0.258.

Set 2 — technique: aptamer microarray, sandwich; form: DNA with 2'F-ANA; sample: in vitro; concentration: 200 nM; added: Cy3 exosite-II aptamer, 400 nM; reading: higher = stronger binding; oligonucleotide: GGTTGGTGTGGTTGG
Target: Prothrombin, mature alpha-thrombin (F2, Homo sapiens, UniProt P00734)
Notes: whole 15-mer aptamer, many near background
`2'F-ANA at 1 2 3 4 5 6 9 11 12 15` — result for “mean fluorescence intensity”: 82.7 a.u.
For `2'F-ANA at 1 3 4 5 6 7 8 11 12 14`, “mean fluorescence intensity” read 85.3 a.u.
`2'F-ANA at 1 2 3 5 6 7 8 12 14 15`: “mean fluorescence intensity” 61 a.u.
`2'F-ANA at 1 5 8 11 13 14` — result for “mean fluorescence intensity”: 52.1 a.u.
For `2'F-ANA at 3 4 5 7 8 9 11 13 14`, “mean fluorescence intensity” read 51 a.u.
For `2'F-ANA at 3 5 6 9 11 13 14`, “mean fluorescence intensity” read 53.9 a.u.
Under “mean fluorescence intensity”, `2'F-ANA at 2 7 8 11 12 13 14 15` is recorded as 196 a.u.
`2'F-ANA at 3 4 5 7 8 9 12 15` — result for “mean fluorescence intensity”: 201 a.u.

Single results of other studies
The remaining activity of COc1cc2ncnc(Nc3cccc(Cl)c3)c2cc1OC is reported as 77.1% (Tyrosine-protein kinase Fer (FER, Homo sapiens, UniProt P16591); enzyme activity, inhibitor; 0.5 µM; relative to: control).
O=c1nc(-c2ccccn2)sc2ccccc12 has a Kd of over 10000 nM (Cyclin-dependent kinase 8 (CDK8, Homo sapiens, UniProt P49336); binding, competition with immobilised ligand).
`GGCGGCGGCATTGTCCGGCGCGCGG (dsDNA)` gave a Kd of 1.87 ± 0.659 nM (Sox2 41-119 (Mus musculus, UniProt P48432); EMSA; double-stranded DNA, one strand shown).

For quick reference, copied from above (set 1):
`AACTTCCT` has an E-score of 0.478.
`AGGAAGAG` gave an E-score of 0.38.
